Measured values of several laboratories.
Values joined by “and” are separate records of one study, mostly repeats; a detail may differ. ± marks the error that the study gave.
MAOB: Amine oxidase [flavin-containing] B (MAOB, Homo sapiens, UniProt P27338)

Amino acid sequences for entries named in this document (tags omitted). Residues count along the entry.
UniProt P27338, whole entry: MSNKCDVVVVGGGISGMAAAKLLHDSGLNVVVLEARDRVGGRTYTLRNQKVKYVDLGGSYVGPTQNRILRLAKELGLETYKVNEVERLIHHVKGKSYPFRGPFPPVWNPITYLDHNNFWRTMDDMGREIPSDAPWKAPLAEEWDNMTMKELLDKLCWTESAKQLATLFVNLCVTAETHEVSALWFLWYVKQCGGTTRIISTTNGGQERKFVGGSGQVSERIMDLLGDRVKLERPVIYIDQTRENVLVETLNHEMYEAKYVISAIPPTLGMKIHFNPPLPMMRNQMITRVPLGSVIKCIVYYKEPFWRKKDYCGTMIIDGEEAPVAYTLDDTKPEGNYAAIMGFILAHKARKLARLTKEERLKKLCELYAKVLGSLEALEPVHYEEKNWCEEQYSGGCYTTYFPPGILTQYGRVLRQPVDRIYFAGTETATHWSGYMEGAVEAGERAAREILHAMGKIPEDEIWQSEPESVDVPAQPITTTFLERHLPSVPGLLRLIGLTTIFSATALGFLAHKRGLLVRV
UniProt P03406, 2-206 limits assumed: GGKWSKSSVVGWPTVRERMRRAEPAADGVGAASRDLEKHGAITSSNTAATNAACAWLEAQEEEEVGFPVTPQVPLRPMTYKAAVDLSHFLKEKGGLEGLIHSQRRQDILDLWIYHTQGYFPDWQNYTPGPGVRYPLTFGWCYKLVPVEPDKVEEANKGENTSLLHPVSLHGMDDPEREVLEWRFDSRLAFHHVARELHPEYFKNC
UniProt P22307, 425-547 limits assumed: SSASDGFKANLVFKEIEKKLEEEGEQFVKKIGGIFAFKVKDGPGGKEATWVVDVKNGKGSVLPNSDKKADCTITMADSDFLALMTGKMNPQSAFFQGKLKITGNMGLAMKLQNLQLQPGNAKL
UniProt P41146, whole entry: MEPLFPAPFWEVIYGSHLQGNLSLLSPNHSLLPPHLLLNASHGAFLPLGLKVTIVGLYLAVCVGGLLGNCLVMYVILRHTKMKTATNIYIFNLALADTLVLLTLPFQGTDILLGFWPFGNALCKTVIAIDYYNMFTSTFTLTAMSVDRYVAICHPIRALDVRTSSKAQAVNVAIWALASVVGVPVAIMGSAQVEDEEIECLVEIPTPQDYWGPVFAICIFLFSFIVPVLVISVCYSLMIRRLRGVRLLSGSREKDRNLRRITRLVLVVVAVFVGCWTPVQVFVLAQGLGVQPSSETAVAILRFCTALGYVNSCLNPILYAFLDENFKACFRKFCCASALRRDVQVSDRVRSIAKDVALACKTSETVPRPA
UniProt O95931, 11-69 limits assumed: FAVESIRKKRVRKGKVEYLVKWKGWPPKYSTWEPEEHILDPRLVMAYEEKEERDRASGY
UniProt P41145, whole entry: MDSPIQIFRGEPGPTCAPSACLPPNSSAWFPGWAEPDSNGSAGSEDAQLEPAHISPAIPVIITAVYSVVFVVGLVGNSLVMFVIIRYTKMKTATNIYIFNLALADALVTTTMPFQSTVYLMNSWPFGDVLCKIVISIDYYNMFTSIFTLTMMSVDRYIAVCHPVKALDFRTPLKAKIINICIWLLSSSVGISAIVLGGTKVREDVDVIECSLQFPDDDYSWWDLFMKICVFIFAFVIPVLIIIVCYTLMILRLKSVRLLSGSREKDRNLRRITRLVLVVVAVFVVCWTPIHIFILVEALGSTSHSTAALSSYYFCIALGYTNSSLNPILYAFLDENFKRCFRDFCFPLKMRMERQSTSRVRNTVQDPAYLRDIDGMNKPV

| Compound | target | test | system | conditions | how to read | measurement | value |
| --- | --- | --- | --- | --- | --- | --- | --- |
| CC[C@H]1OC(=O)[C@H](C)[C@@H](O)[C@@H](C)C[C@@H](C)C(=O)/C=C/[C@H]1C | Protein Nef (Human immunodeficiency virus 1, UniProt P03406) | HLA-A2 downmodulation, inhibitor, flow cytometry | HIV-transduced CD4 T cells, HIV-1 | 24 h | up to 1000 nM | IC50 | < 1 µM |
| Cc1ccc2c(c1)-c1c(ssc1=S)C(C)(C)N2C(=O)CC(C)C | Sterol carrier protein 2 (Homo sapiens, UniProt P22307) | binding, fluorescence | – | with: NBD-stearic acid 500 nM | – | Ki | 2.9 ± 0.2 µM |
| C=CC1=C(C)C2=Cc3c(C=C)c(C)c4[n]3[Fe]([Cl])[n]3c(c(C)c(CCC(=O)O)c3=CC3=NC(=C4)C(C)=C3CCC(=O)O)=CC1=N2 | Heme-degrading monooxygenase HmoB (Bacillus anthracis, UniProt A0A6H3AGK1) | – | – | – | – | Kd | 12.6 ± 0.8 µM |
| Cc1cc(N)c2ccccc2[n+]1CCCCCCCCCC[n+]1c(C)cc(N)c2ccccc21 | N/L (Lymphocytic choriomeningitis virus, UniProt P09992+P14240) | viral replication, Gaussia luciferase reporter | – | – | – | EC50 | 1.09 µM |
| O=C1Cc2ccccc2N1C1CCN([C@@H]2CC[C@@H]3CCCc4cccc2c43)CC1 | Nociceptin receptor (OPRL1, Homo sapiens, UniProt P41146) | agonist | cell membranes | – | – | EC50 | 0.0527 ± 0.0046 µM |
| O=C(c1ccc(F)cc1F)N1CCN(c2ccc3nncn3n2)CC1 | MAOB | enzyme activity, inhibitor, fluorescence | – | recombinant human enzyme, with: kynuramine 20 µM | – | IC50 | 83 µM and 83.1 µM |
| COc1cccc(C(=O)N2CCN(C(=O)COc3cccc(C)c3)CC2)c1OC | Chromobox protein homolog 7 (Homo sapiens, UniProt O95931) | H3K27me3 peptide binding, inhibitor, fluorescence anisotropy | – | – | – | Ki | 43 µM |
| CCC1C(=O)N(C2CCN([C@H]3CC[C@@H]4CCCc5cccc3c54)CC2)c2ccccc21 (relative stereo) | OPRK1 (Homo sapiens, UniProt P41145) | radioligand displacement | – | with: tritiated U-69593 | – | Ki | 0.152 ± 0.0257 µM |
| O=C(c1ccc(Cl)cc1)N1CCN(c2ccc3nncn3n2)CC1 | MAOB | enzyme activity, inhibitor, fluorescence | – | recombinant human enzyme, with: kynuramine 20 µM | – | IC50 | 97 µM |

Repeated from above:
| Compound | target | test | system | conditions | how to read | measurement | value |
| --- | --- | --- | --- | --- | --- | --- | --- |
| Cc1cc(N)c2ccccc2[n+]1CCCCCCCCCC[n+]1c(C)cc(N)c2ccccc21 | N/L (Lymphocytic choriomeningitis virus, UniProt P09992+P14240) | viral replication, Gaussia luciferase reporter | – | – | – | EC50 | 1.09 µM |
